Measurements of several laboratories.
Each numbered part is a random draw from the data of one study; scales do not carry over between parts. Substitutions count along the parent as printed.

Study 1 — technique: RNA Bind-n-Seq; form: RNA; matrix: in vitro; tested at: 365 nM; relative to: no-protein control; direction: higher = stronger binding
Target: RNA binding protein fox-1 homolog 2, RRM domain, GST-SBP tag (RBFOX2, Homo sapiens, UniProt O43251-10, residues 100-194)
Setting: natural RNA segment, single round, ends assumed
Constant ends, left off below: GGGAGUUCUACAGUCCGACGAUC … UGGAAUUCUCGGGUGCCAA
Target sequence (chain): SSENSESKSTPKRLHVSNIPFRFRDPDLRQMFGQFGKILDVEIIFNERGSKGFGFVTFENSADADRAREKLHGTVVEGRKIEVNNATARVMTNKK
| Sequence | RBNS enrichment (R) |
| --- | --- |
| CCCCGCCCUGAAGAGCUUCAGAAAUAGUGGGAGUUUCCCUAAAGCCUUUCAUAGCCUUAAUUCAUGUCAUGUAUAAAUUAACAUAAAUCAUGUCUAUUUACAUAGUGAAG | 0.307 |
| UCAUGCAUAUCAUUGAAAAUUUCUCGUUUUCAUUUUCUUAGAUGACUUCUUGUCUGAGACAGAAAAAUUUCCUACUACAGCAGUGCAGUCCAGAGGUUAAGAUGUAUUAG | 0.381 |
| UUUAGCAUUAUAAGAGAGAUUGGACAAACCAGUCCAAAGUGGUCCGAGUUCUUAAAUCCAGGUAGGGAACUCACUCUUCUUUCUUCUCUGGACCUAAUUGGGCAUUGGGC | 1.14 |
| UAAAAGUACAAGCCAGUGCUUUGUCUUAGUAGUUUUAAGAAAUUAAAGCAAACAGACUUAAGUUUCCUUGUAUUGAAGAUAACCUAUGACUGUAUGUUUUGCAUUCCUAG | 0.463 |
| AUGGUCCUGGGGAUGCCACCUGCUUCUAUGCUUUAUGCAUCAGGAUACUCUCAGGACGUGAGUGUUCACAAGACACGUUUCCCAAAAAAUGCAAAGGUUUCACUGAAAAU | 0.41 |
| UGUGCAGGAAAUGACAAAUUUGUAUGUCAGAUUAUACAAGGAUGUAUUCUUAAACCGCAUGACUAUUCAGAUGGCUACUGAGUUAUCAGUGGCCAUUUAUUAGCAUCAUA | 0.478 |
| AGCCAAUCUGUGCUCUGGGCCUUGCCUCCCAGGCCACAGUCCUGCUCCCAACUUGUUUGUCCCUAGAAGCAGACAACUUUGAACCAAAAGCAUCUCAGUCAAGCAUCUAA | 0.489 |
| GGCCGUGUGGCGGCCCUAUAAGCACCCUGGAGACUCUCGGGCCAGCCGAAUCCUUCCCUCCAGCCCGAGACUACAAGAAGAAACAGACUUUGGCCUGGUCCCAGGGGCCA | 0.357 |

Study 2 — technique: protein-binding microarray; form: double-stranded DNA, one strand shown; matrix: in vitro; tested at: 2200 nM top; setting: 60-bp whole probe; with: salmon DNA 0.4 mg/ml; relative to: random background probes; direction: higher = stronger binding; constant ends, left off below: GCCTAGCAC … GTCTTGATTCGCTTGACGCTGCTG
Target: Interferon regulatory factor 7, full length, phosphomimetic (IRF7, Homo sapiens, UniProt Q92985, residues 1-503, S471D/S472D/S475D/S476D/S477D/S483D/S484D/S487D)
Residues (chain): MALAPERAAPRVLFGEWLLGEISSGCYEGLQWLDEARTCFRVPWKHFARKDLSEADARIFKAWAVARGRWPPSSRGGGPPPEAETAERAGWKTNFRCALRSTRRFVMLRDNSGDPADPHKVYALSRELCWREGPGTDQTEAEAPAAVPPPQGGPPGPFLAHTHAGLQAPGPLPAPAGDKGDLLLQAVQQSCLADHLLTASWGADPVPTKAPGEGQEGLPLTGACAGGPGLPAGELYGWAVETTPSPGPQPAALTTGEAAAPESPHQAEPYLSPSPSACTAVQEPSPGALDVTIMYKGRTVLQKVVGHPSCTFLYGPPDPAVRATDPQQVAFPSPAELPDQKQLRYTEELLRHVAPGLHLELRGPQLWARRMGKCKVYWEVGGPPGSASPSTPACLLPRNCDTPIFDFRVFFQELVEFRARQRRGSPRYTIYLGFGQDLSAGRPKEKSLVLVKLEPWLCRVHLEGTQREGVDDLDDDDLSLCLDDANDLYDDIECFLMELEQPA
| Sequence | fitted relative affinity |
| --- | --- |
| TTAGGTCTCGGAATCGGTTAGTGCTAG | 0.634 z-score |
| CACGGTCTCCTTTTCCTGACGTGCTAG | 1.48 z-score |
| TCAATTATTGTTTCCTCACTGTGCTAG | 1.64 z-score |
| TTAGCTATCGGACTGGGTTAGTGCTAG | 0.14 z-score |
| GACGGACTGGATACTGGGGACGTGCTA | -0.883 z-score |
| GACAATTTCGGGTTTCGAGACGTGCTA | 5.6 z-score |
| TTAGATTTAAGTTCCGATTAGTGCTAG | 0.277 z-score |
| TCACCTCTGGGCTGTTTGACTGTGCTA | 0.177 z-score |

Other studies, line by line — tested at: not given
FOXP2 N303T/S325N N-truncated, polyQ removed: Forkhead box protein P2, N-truncated, polyQ removed (FOXP2, Homo sapiens, UniProt O15409, residues 214-715, N303T/S325N)
Chain of UniProt O15409 (214-715, unmodified, looked up): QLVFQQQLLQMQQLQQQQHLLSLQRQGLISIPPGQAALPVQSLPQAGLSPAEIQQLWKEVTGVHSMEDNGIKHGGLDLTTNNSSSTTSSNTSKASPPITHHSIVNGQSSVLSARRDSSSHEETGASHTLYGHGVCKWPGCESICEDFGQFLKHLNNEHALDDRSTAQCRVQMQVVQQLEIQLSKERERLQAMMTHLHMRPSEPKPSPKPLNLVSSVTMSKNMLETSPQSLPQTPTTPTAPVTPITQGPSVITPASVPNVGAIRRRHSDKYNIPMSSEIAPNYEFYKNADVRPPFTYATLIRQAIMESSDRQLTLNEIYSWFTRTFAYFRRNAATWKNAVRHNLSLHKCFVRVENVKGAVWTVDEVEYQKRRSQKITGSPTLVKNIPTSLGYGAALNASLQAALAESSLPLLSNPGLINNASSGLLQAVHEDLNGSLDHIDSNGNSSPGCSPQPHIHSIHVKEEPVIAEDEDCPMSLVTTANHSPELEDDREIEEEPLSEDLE
P1: PafA, mature enzyme, eGFP fusion (Elizabethkingia meningoseptica, UniProt Q9KJX5); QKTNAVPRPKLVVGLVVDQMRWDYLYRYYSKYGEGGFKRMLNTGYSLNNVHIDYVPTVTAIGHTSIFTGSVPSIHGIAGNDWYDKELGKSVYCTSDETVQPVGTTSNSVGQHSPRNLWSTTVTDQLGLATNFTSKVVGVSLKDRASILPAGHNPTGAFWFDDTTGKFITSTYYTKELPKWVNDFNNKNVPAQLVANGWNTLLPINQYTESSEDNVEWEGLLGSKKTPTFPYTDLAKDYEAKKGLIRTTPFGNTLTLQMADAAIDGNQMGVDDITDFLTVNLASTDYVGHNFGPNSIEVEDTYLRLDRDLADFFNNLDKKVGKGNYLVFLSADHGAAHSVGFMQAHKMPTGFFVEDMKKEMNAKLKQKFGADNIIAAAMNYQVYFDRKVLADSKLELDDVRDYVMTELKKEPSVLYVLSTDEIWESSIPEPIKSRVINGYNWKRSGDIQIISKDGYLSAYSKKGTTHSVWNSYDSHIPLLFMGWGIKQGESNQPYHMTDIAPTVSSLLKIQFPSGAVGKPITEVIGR
| Molecule | target | assay | system | conditions | how to read | measurement | value |
| --- | --- | --- | --- | --- | --- | --- | --- |
| CGCCTGTTACGGCATCAGGGCTTTGGTTTGGGATGGCTGCTTGATTACCAATTGTTCCGGCGGTATGAC | FOXP2 N303T/S325N N-truncated, polyQ removed | MITOMI | double-stranded DNA, one strand shown, in vitro | 69-bp whole dsDNA, apparent Ka, titration fit | relative to: unmutated reference site, higher = stronger binding | relative association constant | 0.00664 fold |
| P1 T419V | inorganic phosphate, free oxyanion | microfluidic competitive inhibition | in vitro, cell-free expressed | derived from inhibition constants, unchanged parent 615000 nM | lower = stronger binding | phosphate dissociation constant | 747 µM |
| CGCCTGTTACGGCATCAGGGCTTTGGTTTGGGATGGCTGCGTGTTTACCAATTGTTCCGGCGGTATGAC | FOXP2 N303T/S325N N-truncated, polyQ removed | MITOMI | double-stranded DNA, one strand shown, in vitro | 69-bp whole dsDNA, apparent Ka, titration fit | relative to: unmutated reference site, higher = stronger binding | relative association constant | 0.395 fold |
